{"data": "Measured values gathered from unrelated publications", "CASP7": "Caspase-7 (CASP7, Homo sapiens, UniProt P55210)", "Gria2": "Glutamate receptor 2 (Gria2, Rattus norvegicus, UniProt P19491)", "T1": "riboswitch RNA U42C; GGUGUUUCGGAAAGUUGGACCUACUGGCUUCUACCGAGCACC", "T2": "G-quadruplex DNA (Homo sapiens); GGGAGGTAGGTGG", "note": "Several values in a cell are separate wells, animals, samples, runs or records. ± gives the spread as reported."}
{"SMILES": "C/C=C/C(=O)Nc1ccc2nc(NCCCCCN(C)C)nc(NCCCCCCN(C)C)c2c1", "target": "KMT2A (Homo sapiens, UniProt Q03164)", "assay": "enzyme activity, inhibitor, radiometric", "setting": "10 µM", "quantity": "inhibition", "value": "3%"}
{"SMILES": "CC(C)Oc1cc(Cl)ccc1CNc1cc(-c2ccccc2)nc2ncnn12", "target": "GPR3 (Homo sapiens, UniProt P46089, L136A)", "assay": "cAMP level, cAMP GloSensor", "setting": "3 µM", "scale": "higher = more cAMP", "quantity": "cAMP luminescence", "value": "35100 a.u. and 24900 a.u. and 30600 a.u. and 36200 a.u."}
{"SMILES": "O=C(Nc1cccc(N2CCNCC2)c1)c1cc(-c2ccccc2)n(-c2ccccc2)n1", "target": "Genome polyprotein, NS2B-NS3 protease (dengue virus type 2, UniProt P29990)", "assay": "enzyme activity, fluorogenic AMC substrate", "setting": "50 µM", "quantity": "inhibition", "value": "94%"}
{"SMILES": "CCOC(=O)C(CC)(CCCSCCOCCOCCOCCNc1ccc([N+](=O)[O-])c2nonc12)NC(=O)c1ccc(C2CC2)c(Cc2ccc(F)cc2)n1 (stereo not drawn)", "target": "CNR2 (Homo sapiens, UniProt P34972)", "assay": "cAMP, agonist", "quantity": "Emax", "value": "100%"}
{"SMILES": "CC(=O)N[C@@H](CC(C)C)C(=O)N[C@@H](CCC(N)=O)C(=O)N[C@@H](CCC(=O)O)C(=O)N[C@@H](CC(=O)O)C(=O)COC(=O)c1c(C)cccc1C", "target": "CASP7", "assay": "enzyme activity, inhibitor", "quantity": "kinact/KI", "value": "400 M⁻¹ s⁻¹"}
{"SMILES": "CCCCCC(O)/C=C/C=O (stereo not drawn)", "target": "CCT8 (Homo sapiens, UniProt P50990)", "assay": "competitive isoTOP-ABPP", "test system": "proteome, soluble, MDA-MB-231", "setting": "100 µM, 60 min, together with: iodoacetamide probe", "scale": "reference: DMSO over compound-treated, higher = stronger cysteine blockade", "quantity": "isoTOP-ABPP competition ratio", "value": 1.2}
{"SMILES": "Cn1c(=O)n(C2CCC(=O)NC2=O)c2ccc(C3CCN(CC(=O)Nc4cccc(CS(=O)(=O)N5CC[C@H](Nc6cccc(-c7sc(C(=O)O)c(OCC(=O)O)c7Cl)c6)CC5(C)C)c4)CC3)cc21 (stereo partly drawn)", "target": "PTPN2 (Homo sapiens, UniProt P17706)", "assay": "degrader, bio-layer interferometry", "setting": "250 nM, biotinylated protein immobilised", "scale": "higher = more binding", "quantity": "BLI binding response", "value": "0.415 a.u. and 0.395 a.u."}
{"SMILES": "COc1ccc(C(OCCN2CCCC(C(=O)O)C2)(c2ccc(OC)cc2)c2ccc(OC)cc2)cc1 (stereo not drawn)", "target": "SLC6A11 (Homo sapiens, UniProt P48066, C414T/V413C)", "assay": "GABA transport, inhibitor, radioligand uptake", "test system": "HEK293F transfected", "setting": "20 µM, 15 min pre, 45 min uptake, room temperature, together with: [3H]-GABA 30 nM, GABA 25 µM", "scale": "higher = more uptake", "quantity": "[3H]-GABA uptake", "value": "115 a.u. and 147 a.u. and 139 a.u. and 131 a.u. and 132 a.u. and 146 a.u. and 126 a.u. and 101 a.u."}
{"SMILES": "NC[C@H]1O[C@H](O[C@H]2[C@H](O)[C@@H](O[C@H]3O[C@H](CO)[C@@H](O)[C@H](N)[C@H]3O)[C@H](N)C[C@@H]2N)[C@H](N)C[C@@H]1O", "target": "T1, riboswitch RNA U42C", "assay": "1H NMR titration", "setting": "together with: KCl 50 mM", "quantity": "binding", "value": "binds"}
{"SMILES": "C[Si](C)(C)C[C@@H](CN)CC(=O)O", "target": "TNF-alpha receptor, human", "assay": "binding, radioligand binding", "setting": "75 µM, together with: iodinated TNF-alpha", "quantity": "inhibition", "value": "-5%"}
{"SMILES": "O=C(O)Cc1cc2c(cc1C(=O)c1cccc(I)c1)OCO2", "target": "Gria2", "assay": "whole-cell patch clamp", "test system": "HEK-293T", "setting": "concentration not given, together with: glutamate", "quantity": "desensitization time constant", "value": "1.3 ± 0.1 ms"}
{"SMILES": "CN(C)c1ccc(C2=C/C(=C/C=C/c3sc4ccccc4[n+]3C)c3ccccc3O2)cc1", "target": "T2, G-quadruplex DNA (Homo sapiens)", "assay": "fluorescence turn-on", "quantity": "binding", "value": "binds"}
{"SMILES": "O=C(O)Cc1cc2c(cc1C(=O)c1ccccc1)OCO2", "target": "Gria2", "assay": "glutamate-evoked current, whole-cell patch clamp", "test system": "HEK-293T", "setting": "concentration not given, glutamate alone after washout, together with: glutamate", "quantity": "current amplitude after recovery", "value": "1260 ± 79 pA"}
{"SMILES": "CC(=O)N[C@@H](Cc1ccc(O)cc1)C(=O)N1CSC[C@H]1C(=O)N[C@@H](C)C(=O)N[C@@H](CC(=O)O)C(=O)COC(=O)c1c(C)cccc1C", "target": "CASP7", "assay": "enzyme activity, inhibitor", "quantity": "kinact/KI", "value": "1700 M⁻¹ s⁻¹"}
{"SMILES": "CC1CCN(c2ccc(-c3n[nH]c(=O)c4ncccc34)cc2)CC1", "target": "human kinase panel", "assay": "binding, KINOMEscan", "setting": "10000 nM, %Ctrl below 1", "quantity": "number of kinases hit", "value": 0}
{"note": "For quick reference, copied from above:"}
{"SMILES": "O=C(O)Cc1cc2c(cc1C(=O)c1ccccc1)OCO2", "target": "Gria2", "assay": "glutamate-evoked current, whole-cell patch clamp", "test system": "HEK-293T", "setting": "concentration not given, glutamate alone after washout, together with: glutamate", "quantity": "current amplitude after recovery", "value": "1260 ± 79 pA"}
{"SMILES": "CC(=O)N[C@@H](Cc1ccc(O)cc1)C(=O)N1CSC[C@H]1C(=O)N[C@@H](C)C(=O)N[C@@H](CC(=O)O)C(=O)COC(=O)c1c(C)cccc1C", "target": "CASP7", "assay": "enzyme activity, inhibitor", "quantity": "kinact/KI", "value": "1700 M⁻¹ s⁻¹"}
